Assay results from different studies.
Every numbered part comes from another study and shows a few of its results, in no order.
UniProt Q2M2I8, sequence (whole entry, looked up): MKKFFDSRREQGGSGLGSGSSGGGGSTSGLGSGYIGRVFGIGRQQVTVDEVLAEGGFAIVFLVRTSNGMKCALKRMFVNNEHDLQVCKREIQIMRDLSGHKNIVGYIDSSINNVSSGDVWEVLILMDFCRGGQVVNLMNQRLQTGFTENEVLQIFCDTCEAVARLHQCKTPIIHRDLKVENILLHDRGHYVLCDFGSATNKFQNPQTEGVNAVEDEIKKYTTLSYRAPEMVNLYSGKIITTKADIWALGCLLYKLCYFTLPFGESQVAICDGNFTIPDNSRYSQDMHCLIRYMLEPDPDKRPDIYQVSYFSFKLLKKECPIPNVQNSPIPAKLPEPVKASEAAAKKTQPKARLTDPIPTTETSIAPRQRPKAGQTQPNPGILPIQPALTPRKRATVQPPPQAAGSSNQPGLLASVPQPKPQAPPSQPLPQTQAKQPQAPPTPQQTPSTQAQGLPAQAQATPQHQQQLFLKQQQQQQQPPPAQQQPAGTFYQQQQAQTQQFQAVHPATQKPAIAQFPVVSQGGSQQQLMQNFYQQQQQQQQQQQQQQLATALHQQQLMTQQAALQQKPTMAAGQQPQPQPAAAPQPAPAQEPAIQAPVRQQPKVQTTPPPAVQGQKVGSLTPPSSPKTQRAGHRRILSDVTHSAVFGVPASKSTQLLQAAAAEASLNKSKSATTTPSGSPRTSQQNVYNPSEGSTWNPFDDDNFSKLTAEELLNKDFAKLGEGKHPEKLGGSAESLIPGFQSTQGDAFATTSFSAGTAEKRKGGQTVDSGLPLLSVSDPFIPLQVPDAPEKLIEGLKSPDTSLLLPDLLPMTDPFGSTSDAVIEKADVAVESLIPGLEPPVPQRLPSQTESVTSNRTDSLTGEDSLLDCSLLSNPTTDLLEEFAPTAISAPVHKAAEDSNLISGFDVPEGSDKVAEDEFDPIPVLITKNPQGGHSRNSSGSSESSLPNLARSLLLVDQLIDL

Study 1
Target: TAR DNA-binding protein 43, full length, His tag (TARDBP, Homo sapiens, UniProt Q13148, residues 1-414)
Method: RNA Bind-n-Seq
Form: RNA
Matrix: in vitro
Tested at: 20 nM
Notes: 6-mer, flanks averaged, single round
With: 150 mM LiCl
Relative to: input library
Direction: higher = stronger binding
Oligonucleotide | 6-mer enrichment (R)
GGUUUU | 1.26
GUAAAC | 0.857
AUUCUG | 0.92
CUAAGA | 0.819
UCCCAG | 0.932
GCUUGU | 1.12
AGCUUU | 0.93
UCUUCC | 0.901

Study 2
Target: Phosphate system positive regulatory protein PHO4, full length, GST-tagged (PHO4, Saccharomyces cerevisiae, UniProt P07270, residues 1-312)
Method: competition protein-binding microarray
Form: double-stranded DNA, one strand shown
Matrix: in vitro
Tested at: 2 µM
Notes: whole 60-bp probe, lowest competitor level
With: Cbf1 competitor, 0.05 µM
Direction: higher = stronger binding
Residues (chain): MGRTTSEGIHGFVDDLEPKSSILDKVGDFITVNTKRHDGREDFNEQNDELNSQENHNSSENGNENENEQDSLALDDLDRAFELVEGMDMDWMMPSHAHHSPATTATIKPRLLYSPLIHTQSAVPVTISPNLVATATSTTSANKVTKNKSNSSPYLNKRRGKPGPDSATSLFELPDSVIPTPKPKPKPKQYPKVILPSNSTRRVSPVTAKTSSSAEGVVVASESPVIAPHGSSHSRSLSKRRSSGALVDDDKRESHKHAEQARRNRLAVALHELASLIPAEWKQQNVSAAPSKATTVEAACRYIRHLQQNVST
Oligonucleotide | fluorescence intensity [a.u.]
GTCATCCTCGTCGTTCACGGGTTTAATTTGAATCCTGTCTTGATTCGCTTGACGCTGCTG | 6810
CTCGTCTGACGCGGAAACGTGCGGAAAAAAATCTCCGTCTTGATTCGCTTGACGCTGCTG | 13700
CTAACGAAGGTTTGAATAGTGGGTGACAAGCCAAGTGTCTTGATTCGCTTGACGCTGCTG | 3540
CTTTCCCGATCTTGTGAAGTGGGTGTAGCACATTTGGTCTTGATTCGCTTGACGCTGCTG | 4390
GCCGCTTCTTTATGCACCGTGGAGTAATTACCGAATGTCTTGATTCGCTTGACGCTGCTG | 6150
GTCTTGTCTCATTGCGGAGTGGGTGTCCCCACTTCAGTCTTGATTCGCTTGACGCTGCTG | 4330
GCGGTCGGTAAATTTTTCGTGGGTATCTTTGAATCTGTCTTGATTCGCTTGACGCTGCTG | 3400
CGTCCTAGTGATTTTCACGTGTAATCCATGAGGAAGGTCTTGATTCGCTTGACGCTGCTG | 12400

Further values, each from its own experiment
Compound | tested on | assay | system | setting | measurement | value
Cn1cncc1[C@@](O)(COc1ccc(C#N)cc1-c1ccc(OC(F)(F)F)cc1)c1ccc(C#N)cc1 | AP2-associated protein kinase 1 (AAK1, Homo sapiens, UniProt Q2M2I8) | binding |  | 1 µM | remaining binding | 94%
CC(C)C[C@@H]1NC(=O)[C@H](CC(C)C)NC(=O)[C@@H](CC(C)C)NC(=O)[C@H](C(C)C)NC(=O)[C@H](C)NC(=O)[C@H](C)NC(=O)[C@H](CCC(=O)N2CCCC2)NC1=O |  |  |  | pH 7.4 | logD | -2.77
CC(C)n1cnc(-c2ccc(F)cc2)c1-c1ncc(C(=O)Nc2ccc(N3CCN(C)CC3)cc2)[nH]1 |  |  | human, idiopathic pulmonary fibrosis | 30 mg once daily, trial, treatment-emergent | patients with Hypothyroidism | 0%

A few entries again (study 1):
Oligonucleotide | 6-mer enrichment (R)
CUAAGA | 0.819
UCUUCC | 0.901
